Results of several laboratories.
Lines come from different studies, so protocols differ. pKd: −log10 of the molar value.
basR 1-222: basR 1-222 (Escherichia coli)
HapB/HapC/HapE/HapX HapX 24-158: HapB/HapC/HapE/HapX HapX 24-158 (Aspergillus fumigatus)
saeR full length assumed: saeR full length assumed (Staphylococcus aureus, UniProt Q2FIT4)
Sequence of UniProt Q2FIT4 (whole entry, looked up): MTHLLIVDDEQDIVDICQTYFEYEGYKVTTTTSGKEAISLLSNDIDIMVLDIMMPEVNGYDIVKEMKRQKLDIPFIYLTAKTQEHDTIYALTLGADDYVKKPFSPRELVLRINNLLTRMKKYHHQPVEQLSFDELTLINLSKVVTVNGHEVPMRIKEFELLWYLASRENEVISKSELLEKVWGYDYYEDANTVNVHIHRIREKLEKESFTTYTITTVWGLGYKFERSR
Aspartate aminotransferase: Aspartate aminotransferase (Streptococcus pneumoniae, UniProt Q8DNN5)
cssR 1-198: cssR 1-198 (Corynebacterium glutamicum)
dnaA full length assumed: dnaA full length assumed (Borreliella burgdorferi, UniProt P33768)
Sequence of UniProt P33768 (whole entry, looked up): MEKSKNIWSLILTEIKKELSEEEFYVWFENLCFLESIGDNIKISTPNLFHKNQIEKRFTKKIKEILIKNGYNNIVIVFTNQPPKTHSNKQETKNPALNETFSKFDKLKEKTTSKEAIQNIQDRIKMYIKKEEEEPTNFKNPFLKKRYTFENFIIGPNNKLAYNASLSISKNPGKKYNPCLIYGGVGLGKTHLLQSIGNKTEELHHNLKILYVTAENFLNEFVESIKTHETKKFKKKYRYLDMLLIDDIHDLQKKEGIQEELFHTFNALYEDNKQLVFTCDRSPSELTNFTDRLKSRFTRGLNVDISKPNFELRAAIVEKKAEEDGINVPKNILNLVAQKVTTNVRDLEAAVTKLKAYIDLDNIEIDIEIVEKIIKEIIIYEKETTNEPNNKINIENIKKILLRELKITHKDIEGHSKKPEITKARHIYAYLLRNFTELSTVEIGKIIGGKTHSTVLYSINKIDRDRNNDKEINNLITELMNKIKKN
T1: basR 1-222 (Escherichia coli); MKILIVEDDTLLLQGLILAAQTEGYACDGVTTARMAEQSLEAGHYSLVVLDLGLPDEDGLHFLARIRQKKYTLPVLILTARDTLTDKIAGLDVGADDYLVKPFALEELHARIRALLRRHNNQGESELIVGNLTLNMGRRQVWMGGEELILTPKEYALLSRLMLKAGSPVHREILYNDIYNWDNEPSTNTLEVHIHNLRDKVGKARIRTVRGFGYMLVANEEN
T2: rgg3 1-283 (Streptococcus pyogenes); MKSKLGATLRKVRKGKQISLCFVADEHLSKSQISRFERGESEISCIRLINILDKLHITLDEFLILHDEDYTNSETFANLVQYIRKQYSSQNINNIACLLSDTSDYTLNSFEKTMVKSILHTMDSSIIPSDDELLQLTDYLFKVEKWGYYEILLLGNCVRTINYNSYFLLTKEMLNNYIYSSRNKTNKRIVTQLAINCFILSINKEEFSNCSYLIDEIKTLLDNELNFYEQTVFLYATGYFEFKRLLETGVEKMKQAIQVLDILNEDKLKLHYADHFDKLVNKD
T3: cssR 1-198 (Corynebacterium glutamicum); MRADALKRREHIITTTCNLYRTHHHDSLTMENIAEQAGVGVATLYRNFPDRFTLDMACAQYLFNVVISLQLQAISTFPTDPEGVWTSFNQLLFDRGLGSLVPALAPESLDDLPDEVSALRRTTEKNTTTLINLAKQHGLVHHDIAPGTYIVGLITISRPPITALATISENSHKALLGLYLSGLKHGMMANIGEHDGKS
Sequence of UniProt P60386 (whole entry, looked up): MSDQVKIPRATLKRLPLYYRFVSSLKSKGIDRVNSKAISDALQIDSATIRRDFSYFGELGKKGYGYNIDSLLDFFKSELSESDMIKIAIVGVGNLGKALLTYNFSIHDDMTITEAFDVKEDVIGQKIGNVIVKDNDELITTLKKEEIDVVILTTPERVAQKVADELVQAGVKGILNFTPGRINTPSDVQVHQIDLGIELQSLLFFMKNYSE
Sequence of UniProt Q7DDD9 (whole entry, looked up): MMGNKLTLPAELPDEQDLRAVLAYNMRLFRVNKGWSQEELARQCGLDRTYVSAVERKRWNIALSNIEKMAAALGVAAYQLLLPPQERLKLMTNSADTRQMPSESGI

Substance | target or system | assay | system | setting | endpoint | value
GCAACCGTTTTCACTTTCCGTGCTTCTCCTAAAGACAGAAGCATCGACTTCGTGTAGGGTTTGCCAGCAAATTTATTTATCAACCGTCTTACAGACGCTTCCATTCTGGTTAGTGGTAGCGATGATGCTATGCATAAAAACCTTGAAGCCTGCGCCTGGCGCGGTCAGGTCGGTGTCACTATGGCAACAAGCCTAAAGGCATAACCCGACAGGGATAAGACGAAAAATCCGAGATTAGTTAACCATATATGAATCCAGTACCCGCGCAACGTGAATATTTCC (dsDNA (Escherichia coli)) | T1, basR 1-222 (Escherichia coli) | EMSA | double-stranded DNA, one strand shown |  | binding | binds
AAATCCACCAATCAACGCCTCCGTGATTGTCAGCAAT (dsDNA) | HapB/HapC/HapE/HapX HapX 24-158 | SPR | double-stranded DNA, one strand shown | HapX on preformed CBC:DNA | pKd | 9.40
ATATTGATCAGTCGGATACACGATATCTCTGACTCCCCGCGCTCAAAACGAGAGATTTGTGATTTTGAAAGGTGTTCATCTGCCACGAAGCACAGACTAATTTGCTTTCCTTTTCGAACTTTTCTAAGTGTGGCACCAAGTTTTGATTTCATATTTTCCCACTTTCCCAACAAAAATCAATTCAGTTTTTTTTTATTGTACAATAAATAAAAACTGAAAGGAAGTCCACTT (dsDNA) | T2, rgg3 1-283 (Streptococcus pyogenes) | EMSA | double-stranded DNA, one strand shown |  | binding | binds
TTACATTTATTAAGTTATCCTATTTATACAACTTTTGAAATTAACTAATTATTAATTAACTATAAACACTTTATAATATAGACAAAATATAGCTATCTAT (dsDNA) | saeR full length assumed | EMSA | double-stranded DNA, one strand shown |  | binding | binds
melittin |  | membrane partitioning, ITC enthalpy vs temperature | POPC/POPG LUVs 100:0% | concentration not given, 25 to 60 °C | heat capacity change | -0.61 kcal/mol/K
GCTGAGCCGAATGAAAGTTGCCTAATTACTAAGGTGT (dsDNA) | HapB/HapC/HapE/HapX HapX 24-158 | SPR | double-stranded DNA, one strand shown | HapX on preformed CBC:DNA | pKd | > 7.00
TAGATGAAGAAGTTGTTTGCCAATTATTTGTGTCTTACTTTCAAAAAATGTTTTTCATAGATGAAAGTCTCTTTATGAAATGCGTAAAAAAGGATAGTTATGTTGAAAAATCTTACCATCTATTGAGTGATTTTATTGATCAGATTTCAGTCAAGTATCAGATTGAAATTGAGAATAAGGATAATCTGATTTGGCATCTGCATAATACCGCACATCTGTATCGTCAAGAGTTGTTTACTGAGTTTATTTTATTTGATCAAAAAGGGAATACAATCAGGAACT (dsDNA) | Aspartate aminotransferase | EMSA | double-stranded DNA, one strand shown |  | binding | binds
TACTCAAAAAACATTTACTTAAAAATATAAATTCGATTTAATAATTAATTTAAATTTAGTTAATCAATTTTGCATCTATTTTGTTGTAAGCTATATAAAA (dsDNA) | saeR full length assumed | EMSA | double-stranded DNA, one strand shown |  | binding | binds
TTGTCATTATTAAAAACCTCGCTTTTAAAAGATTGAAAAGTAAATGAGTGAAATTAAAGATTATGTACATTAAAATCACGCCACAATTTAATTGTGAAAAATATCACAAATATATTATAACACTAAATTTTCCAAAATTCAAAAGTGTGTTTTATTGCAGAAAACTTATAACATGTGCACAAGTTATAGCGAATTGCAAACGGATTACTTTAGTCTTTTTAAAACATGAAGTATAATTTGTATAGTAATAAATATAAAAATTGGAGGCTATGTTCAATGAGCAATA (dsDNA) | rex 1-211 (Staphylococcus aureus, UniProt P60386) | EMSA | double-stranded DNA, one strand shown |  | binding | binds
GATGAAACCCCGCTTTTTTTATTGATCGCACACCTGACAGCTGCCTCTAAAATAGAAGCACCAGAAGTACTGACAGATGTTGCACTGCTGTGTGTAGTAATAAATCAGCCCTAAATGGGTAAAATATAAAACTAATGGATTACATCTGATTTCAATCTAGCCATTAC (dsDNA (Escherichia coli)) | T1, basR 1-222 (Escherichia coli) | EMSA | double-stranded DNA, one strand shown |  | binding | binds
CCGAAAAAGGGTGAATGGGGGGAATTTTCAGAGCTGTCACACCCCCGTTTCCTGAGGGGAATACTTAGATTCCACATAGCGGAATTATCTTGAGTCACCTTTCAAAGCCCAATATGTTCGAAGTCACAAACACTTCAAGGGCTAGACGTATGCAGGTGTTGGGGATTGCTTATCTCAAGGGCAATCACACCCTTCATACGCATCTACAACATCCGTAAAGGAGGACTCCAACAA (dsDNA (Corynebacterium glutamicum)) | T3, cssR 1-198 (Corynebacterium glutamicum) | EMSA | double-stranded DNA, one strand shown |  | binding | no binding
CTAGGGATCCTAAAGGGGTATTAAACGCACTTCTAATAACGATTTTATAGCGCTTCAAAGATATAACACTAATTCATTTTAAATAATAATTAGTTAATGAACGCTTCTGTTAATCTTAGTAAATCAAAACATTGCTACAATTACATCCAACCTTGATTTCGTTATGTCTTCAAGGAAAAACACTTTAAGAATAGGAGCTGCAGCGATGC (dsDNA (Helicobacter pylori); blunt) | mua 1-153 (Helicobacter pylori, UniProt O25538) | EMSA | double-stranded DNA, one strand shown | added: NiSO4 0.8 mM | binding | no binding
GCTAGCTAAAAATAACATTACAATAAATCTTATTGACATAAATTGATTTTTTTTATATAAGTAAATTATTGTATTGCGTCC (dsDNA) | dnaA full length assumed | competition | double-stranded DNA, one strand shown | 1.4 µM | binding | no binding
CAAATTCTTTAATTGTTGCTATTATATAATTTTTAAAATTAAAAATATAATCTTTAGACTTGAATTTGATTCTGTATTCACGCCCTCAATAGACGGTAAAATAAGAAAATTGTTTATATATTGTCTCCGTAGTGTTATTATACGAAATAAAAGATTTTAGGAAAAGTCGTTATATCATGCTATACCTATTCTTTGTGGTATAATTGCAAGAGGTTTAATCCG (dsDNA) | Aspartate aminotransferase | DNase I footprinting | double-stranded DNA, one strand shown | added: CaCl2 1 mM, MgCl2 10 mM | binding | binds
GTATCGACATGTGAATAATATCACAAAAACAGAGAATATATATTTAACTATTTATTAAATGATTTTGTTAATATTATTAAATACTTTATCCTCTTTAAAA (dsDNA) | saeR full length assumed | EMSA | double-stranded DNA, one strand shown |  | binding | binds
CCACACAAGTTTTTGTACTTGACTACATTTAAGCTAAATTAATTGTACTTATTTAAAAAAAAAATTGCTAGCTAAAAATAACATTACAATAAATCTTATTGACATAAATTGATTTTTTTTATATAAGTAAATTATTG (dsDNA) | dnaA full length assumed | competition | double-stranded DNA, one strand shown | 1.4 µM | binding | binds
TTCTAATTGCCTATGACTTTTTTTAGATAATAAATCTCTCATGAATATCTTTCTCTCTTTATAAATTATCGGATTAAACCTCTTGCAATTATACCACAAAGAATAGGTATAGCATGATATAACGACTTTTCCTAAAATCTTTTATTTCGTATAATAACACTACGGAGACAATATATAAACAATTTTCTTATTTTACCGTCTATTGAGGGCGTGAATACAGAATC (dsDNA) | Aspartate aminotransferase | hydroxyl radical footprinting | double-stranded DNA, one strand shown |  | binding | binds
CCATTGAGAGACATTTCAAACTCCTTTGAAGGTTTGTGATCCCAGACACTTCGTCGGGGCGTGATACCAATGAAAACTCATAACGTTGAAAATGTCAACTATTAATTTTGAAAACTTACATCGTTCGCTTGACGCACAGAATGCATGCATGTTCAAATGATTGAAGATCGAAACTATTTTTCAGCCAGTTCACATGG (dsDNA (Corynebacterium glutamicum)) | T3, cssR 1-198 (Corynebacterium glutamicum) | EMSA | double-stranded DNA, one strand shown |  | binding | no binding
GTCAATTCATGTAAAATAATTTAATAAAACGTTAATAAGTGGTTAATTAATATTTAATTAATATTTTTATTTAAAATGTATATAGTAAATGTGTATCTAG (dsDNA) | saeR full length assumed | EMSA | double-stranded DNA, one strand shown |  | binding | binds
GCGCTGTTTCCCAATCTGTCTTGATTTTATCTCTTTCCTCTTGATGTGTGTGTGTTTGGGTGTGGCTGCCGCCACCCCTTTTTTTTGGCTTTTATGTGAAGTAAAATCCGTAACAGCAAATGCTTAACTTTAACCATTTATCTGGAAGCAAGCGC (dsDNA) | NHTF full length assumed (Neisseria meningitidis, UniProt Q7DDD9) | EMSA | double-stranded DNA, one strand shown | 1-3 µM | binding | binds

Some of these lines once more:
Substance | target or system | assay | system | setting | endpoint | value
GCGCTGTTTCCCAATCTGTCTTGATTTTATCTCTTTCCTCTTGATGTGTGTGTGTTTGGGTGTGGCTGCCGCCACCCCTTTTTTTTGGCTTTTATGTGAAGTAAAATCCGTAACAGCAAATGCTTAACTTTAACCATTTATCTGGAAGCAAGCGC (dsDNA) | NHTF full length assumed (Neisseria meningitidis, UniProt Q7DDD9) | EMSA | double-stranded DNA, one strand shown | 1-3 µM | binding | binds
